Experimental data from different studies.
Protocols differ between the studies behind these lines. “And” joins repeats or separate records; there may be more than shown. ± marks the error that the study gave.

| SMILES | assay | test system | conditions | scale | endpoint | result |
| --- | --- | --- | --- | --- | --- | --- |
| CC(=NN=c1[nH]c2cc(F)c(F)cc2n1C)c1ccc(F)cn1 | item: Ki67 | MDA-MB-231 xenograft, SCID mice | 10 mg/kg/day, end of treatment | – | proliferating cells | ~23% |
| C[C@@H]1CN(C2CCC2)CC[C@H](O[C@H]2[C@@H](O)C[C@H](O[C@H]3[C@@H](O)C[C@H](O[C@H]4CC[C@@]5(C)[C@H](CC[C@@H]6[C@@H]5C[C@@H](O)[C@]5(C)[C@@H](C7=CC(=O)OC7)CC[C@]65O)C4)O[C@@H]3C)O[C@@H]2C)O1 | – | rat hippocampal slices | 10 µM, ~14 min, trace 2, together with: electrical stimulation | relative to: pre-drug control | peak stimulus-induced K+ rise | 143 ± 13% |
| CCC1NC(=O)C(CCCNC(=N)N)NC(=O)C(C)(NC(=O)C(C)C)CCCCNC(=O)C(c2ccccc2)NC1=O (stereo not drawn) | ChIP, item: Hoxa1-Hoxa6 loci | MLL-AF9 leukaemia cells, mouse | dose not given | – | H3K4me2 level | no effect |
| CC(=O)N[C@H](C(=O)N[C@@H](CC(=O)O)C(=O)N[C@H](C(=O)N1CCc2cc(C)ccc2[C@@H]1C(=O)N[C@H](C=O)CC(=O)O)C(C)C)C(C)C | – | primary hippocampal neurons, PS19 mouse, P301S tau transgenic | 10 µM, 3 days | – | mEPSC frequency | no effect |
| Cc1nn(C)c2c(C(C(=O)O)N3CC(OCCCCc4ccc5c(n4)NCCC5)C3)cccc12 (stereo not drawn) | – | rat, Sugen/hypoxia model, distal pulmonary arteries | – | relative to: vehicle or IgG | FAK phosphorylation | decreased |
| Cc1ncsc1-c1ccc([C@H](C)NC(=O)[C@@H]2C[C@@H](O)CN2C(=O)[C@@H](NC(=O)CCCCCCC(=O)N2CCN(C[C@]3(C)CCC(c4ccc(Cl)cc4)=C(CN4CCN(c5ccc(C(=O)NS(=O)(=O)c6ccc(N[C@H](CCN7CCOCC7)CSc7ccccc7)c(S(=O)(=O)C(F)(F)F)c6)cc5)CC4)C3)CC2)C(C)(C)C)cc1 | – | STAM mice NASH-HCC model, liver | day 150, treated days 45-150 | – | collagen deposition | decreased |
| CCCCN(CCc1ccc(Cl)c(Cl)c1)C[C@H](O)COc1ccc(NS(C)(=O)=O)cc1 | – | mouse, transient MCAO | intraperitoneal, dose not given, 20 min before occlusion | – | infarct volume reduction | ≤ 50% |
| COc1cc(-c2n[nH]c3ccc(/C=C(\C#N)C(=O)NC(C)(C)CO)cc23)cc(OC)c1OC | – | cell culture | concentration not given | – | duration of activity | 12 to 24 h |
| O=C(O)c1cccc(-c2cc(=O)n3nc(-c4ccco4)c(C4CC4)c3[nH]2)c1 | DCPIP reduction | K562 cell lysate | 10 µM, 60 min | – | diaphorase activity | 0.0542 OD/min and 0.0538 OD/min and 0.0532 OD/min |

For quick reference, copied from above:
| SMILES | assay | test system | conditions | scale | endpoint | result |
| --- | --- | --- | --- | --- | --- | --- |
| CCCCN(CCc1ccc(Cl)c(Cl)c1)C[C@H](O)COc1ccc(NS(C)(=O)=O)cc1 | – | mouse, transient MCAO | intraperitoneal, dose not given, 20 min before occlusion | – | infarct volume reduction | ≤ 50% |
